Experimental data from different studies.
Numbered parts are unrelated; each lists some results of a single study.

Set 1 — technique: universal PBM; molecule type: double-stranded DNA, one strand shown; sample: in vitro; concentration: 600 nM; direction: higher = stronger binding
Target: Sal-like protein 4, full length isoform A (SALL4, Homo sapiens, UniProt Q9UJQ4, residues 1-1053)
UniProt Q9UJQ4, sequence (whole entry, looked up): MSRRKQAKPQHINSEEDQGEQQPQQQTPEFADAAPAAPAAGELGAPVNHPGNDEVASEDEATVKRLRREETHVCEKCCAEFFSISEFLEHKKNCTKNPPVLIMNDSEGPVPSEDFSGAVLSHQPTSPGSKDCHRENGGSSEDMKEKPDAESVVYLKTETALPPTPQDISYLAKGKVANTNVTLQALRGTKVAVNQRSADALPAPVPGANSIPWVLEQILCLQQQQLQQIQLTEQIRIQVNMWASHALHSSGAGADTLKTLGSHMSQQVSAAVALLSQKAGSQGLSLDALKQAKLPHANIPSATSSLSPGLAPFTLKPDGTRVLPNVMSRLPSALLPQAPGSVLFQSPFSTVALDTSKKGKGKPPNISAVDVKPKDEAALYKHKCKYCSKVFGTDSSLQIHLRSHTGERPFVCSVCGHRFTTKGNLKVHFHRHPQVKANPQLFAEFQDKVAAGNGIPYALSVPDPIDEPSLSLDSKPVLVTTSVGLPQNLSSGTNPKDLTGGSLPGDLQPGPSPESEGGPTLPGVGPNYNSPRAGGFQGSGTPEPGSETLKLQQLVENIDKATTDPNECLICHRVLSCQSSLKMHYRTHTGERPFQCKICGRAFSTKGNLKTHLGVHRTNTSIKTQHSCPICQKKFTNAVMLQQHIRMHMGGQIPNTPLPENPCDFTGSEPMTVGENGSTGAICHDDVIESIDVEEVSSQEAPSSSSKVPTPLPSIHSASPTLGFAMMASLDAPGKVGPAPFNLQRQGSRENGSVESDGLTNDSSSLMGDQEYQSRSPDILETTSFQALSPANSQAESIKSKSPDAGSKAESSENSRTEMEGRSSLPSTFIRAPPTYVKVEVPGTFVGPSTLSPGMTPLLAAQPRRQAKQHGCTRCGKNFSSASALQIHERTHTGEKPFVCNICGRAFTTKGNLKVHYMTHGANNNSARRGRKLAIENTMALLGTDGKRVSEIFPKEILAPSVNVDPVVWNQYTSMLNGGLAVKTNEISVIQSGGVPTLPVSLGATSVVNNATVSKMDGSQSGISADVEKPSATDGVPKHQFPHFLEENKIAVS
Notes: 8-mer, flanks averaged, mean of replicates
Strand | E-score
AAGCACTA | 0.0943
CTCAGCAG | -0.178
ACTGAATA | 0.298
AATAGCAT | 0.269
GGATACCC | -0.238
AACGCTGT | -0.0308
ACGTTGTG | 0.0447
CTGCAGCC | -0.254
ATGGGCAC | -0.093

Set 2 — technique: aptamer microarray, sandwich; molecule type: DNA with 2'F-ANA; sample: in vitro; concentration: 200 nM; with: Cy3 exosite-II aptamer, 400 nM; direction: higher = stronger binding; strand: GGTTGGTGTGGTTGG
Target: Prothrombin, mature alpha-thrombin (F2, Homo sapiens, UniProt P00734)
Notes: whole 15-mer aptamer, many near background
Modification | mean fluorescence intensity
2'F-ANA at 3 5 8 12 | 337 a.u.
2'F-ANA at 1 4 5 10 14 | 115 a.u.
2'F-ANA at 3 4 5 6 7 8 9 | 116 a.u.
2'F-ANA at 1 2 3 4 5 6 7 10 12 15 | 53.5 a.u.
2'F-ANA at 1 2 4 6 7 10 11 12 13 15 | 60.6 a.u.
2'F-ANA at 3 4 5 6 10 14 15 | 84.7 a.u.
2'F-ANA at 2 4 8 9 15 | 364 a.u.
2'F-ANA at 2 3 5 6 7 9 12 14 15 | 52.5 a.u.
2'F-ANA at 1 6 7 8 10 12 13 14 15 | 91.9 a.u.
2'F-ANA at 1 2 3 6 8 9 13 15 | 184 a.u.
2'F-ANA at 1 4 5 6 8 10 11 12 15 | 64.3 a.u.
2'F-ANA at 1 2 3 5 7 8 9 11 12 14 | 269 a.u.

Set 3 — technique: protein binding microarray; molecule type: double-stranded DNA, one strand shown; sample: in vitro; concentration: not given; reference: not given; direction: higher = stronger binding
Target: Histone acetyltransferase KAT6A, both winged helices, GST fusion (KAT6A, Homo sapiens, UniProt Q92794, residues 1-181)
Notes: 8-mer, flanks averaged, mean of 2 arrays, mostly near background
Construct (chain): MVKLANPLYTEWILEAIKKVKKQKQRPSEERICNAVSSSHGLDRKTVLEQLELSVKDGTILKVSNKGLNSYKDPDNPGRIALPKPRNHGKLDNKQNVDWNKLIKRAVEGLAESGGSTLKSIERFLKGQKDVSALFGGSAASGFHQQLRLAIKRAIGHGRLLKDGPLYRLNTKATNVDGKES
Strand | E-score
ACTTTTAA | -0.049
AAAGAGAC | -0.184
CGTAGTAG | 0.0381
AAGCGCTC | 0.348
ATTACTCA | -0.113
CATTCAGC | -0.0403
CAGCGGCA | 0.188
GTCGGATA | 0.172
CCTGGTCA | -0.172
GATCGCTA | 0.0972
CCGGACGG | 0.272
CAGCGGAC | 0.18

Single results of other studies
Molecule | target | assay | test system | conditions | how to read | endpoint | value
PhoQ, residues 284 288 289 292 302 303 TVTVVA | PhoP, residues 12 14 15 18 19 VQALL (Escherichia coli, UniProt P23836) | Sort-seq, item: YFP reporter | E. coli | PhoQ-PhoP variant library, with: 10 µM Mg2+ | reference: high Mg2+ state, higher = stronger signaling | fold induction | 7.89

A few entries again (set 2):
Modification | mean fluorescence intensity
2'F-ANA at 1 6 7 8 10 12 13 14 15 | 91.9 a.u.
2'F-ANA at 1 2 3 6 8 9 13 15 | 184 a.u.
2'F-ANA at 2 3 5 6 7 9 12 14 15 | 52.5 a.u.
